# Assay results pooled from the literature.
# Numbered parts are unrelated; each lists some results of a single study.
# Sequence of UniProt P42336 (whole entry, unmodified, looked up): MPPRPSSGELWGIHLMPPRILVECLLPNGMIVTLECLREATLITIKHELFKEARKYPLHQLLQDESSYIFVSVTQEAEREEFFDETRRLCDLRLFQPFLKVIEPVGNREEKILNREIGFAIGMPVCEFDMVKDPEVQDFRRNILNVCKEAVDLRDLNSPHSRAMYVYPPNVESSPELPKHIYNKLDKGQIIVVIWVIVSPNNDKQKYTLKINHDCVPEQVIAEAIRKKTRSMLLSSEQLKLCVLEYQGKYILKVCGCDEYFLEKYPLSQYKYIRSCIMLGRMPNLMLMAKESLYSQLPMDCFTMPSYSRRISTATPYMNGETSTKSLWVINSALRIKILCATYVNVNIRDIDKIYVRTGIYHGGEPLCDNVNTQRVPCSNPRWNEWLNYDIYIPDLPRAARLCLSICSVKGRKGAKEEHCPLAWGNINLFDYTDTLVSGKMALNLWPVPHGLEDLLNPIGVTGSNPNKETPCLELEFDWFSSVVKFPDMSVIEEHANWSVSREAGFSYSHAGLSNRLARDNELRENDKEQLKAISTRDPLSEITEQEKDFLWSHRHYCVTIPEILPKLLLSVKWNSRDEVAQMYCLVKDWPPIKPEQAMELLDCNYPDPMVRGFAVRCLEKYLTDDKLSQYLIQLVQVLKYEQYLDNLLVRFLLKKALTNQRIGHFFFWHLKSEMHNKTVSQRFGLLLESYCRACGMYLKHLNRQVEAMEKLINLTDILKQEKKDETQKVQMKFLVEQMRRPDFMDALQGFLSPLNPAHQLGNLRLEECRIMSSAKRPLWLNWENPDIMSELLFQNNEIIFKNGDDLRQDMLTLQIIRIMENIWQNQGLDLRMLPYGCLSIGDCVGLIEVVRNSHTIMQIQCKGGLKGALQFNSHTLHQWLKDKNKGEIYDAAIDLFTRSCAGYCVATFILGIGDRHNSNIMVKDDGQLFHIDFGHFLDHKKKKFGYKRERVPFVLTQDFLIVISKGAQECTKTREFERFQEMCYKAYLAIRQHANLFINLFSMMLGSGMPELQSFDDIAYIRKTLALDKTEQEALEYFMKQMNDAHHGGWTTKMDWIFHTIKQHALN
# Sequence of UniProt O75582 (whole entry, looked up): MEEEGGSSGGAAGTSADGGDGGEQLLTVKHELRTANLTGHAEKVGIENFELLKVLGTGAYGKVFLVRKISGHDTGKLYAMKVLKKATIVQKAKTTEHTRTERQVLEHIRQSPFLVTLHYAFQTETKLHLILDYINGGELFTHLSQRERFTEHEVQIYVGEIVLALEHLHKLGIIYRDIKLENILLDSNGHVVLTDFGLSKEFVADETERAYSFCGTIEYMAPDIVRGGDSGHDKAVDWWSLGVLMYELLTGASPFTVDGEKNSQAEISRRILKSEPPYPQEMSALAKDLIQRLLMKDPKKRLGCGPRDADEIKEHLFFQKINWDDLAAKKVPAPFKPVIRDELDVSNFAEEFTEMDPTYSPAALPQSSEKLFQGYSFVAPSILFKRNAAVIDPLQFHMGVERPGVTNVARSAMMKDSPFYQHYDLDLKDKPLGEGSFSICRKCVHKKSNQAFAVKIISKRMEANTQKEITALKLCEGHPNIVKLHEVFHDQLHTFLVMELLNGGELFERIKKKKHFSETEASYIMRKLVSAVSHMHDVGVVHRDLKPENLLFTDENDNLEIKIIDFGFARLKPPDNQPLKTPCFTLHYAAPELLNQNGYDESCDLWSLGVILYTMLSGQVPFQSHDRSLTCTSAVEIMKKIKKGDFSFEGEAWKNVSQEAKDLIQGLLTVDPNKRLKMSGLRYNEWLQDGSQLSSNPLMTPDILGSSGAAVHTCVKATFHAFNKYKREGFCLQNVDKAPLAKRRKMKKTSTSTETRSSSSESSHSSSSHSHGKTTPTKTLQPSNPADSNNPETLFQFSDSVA
# Sequence of UniProt Q16816 (whole entry, looked up): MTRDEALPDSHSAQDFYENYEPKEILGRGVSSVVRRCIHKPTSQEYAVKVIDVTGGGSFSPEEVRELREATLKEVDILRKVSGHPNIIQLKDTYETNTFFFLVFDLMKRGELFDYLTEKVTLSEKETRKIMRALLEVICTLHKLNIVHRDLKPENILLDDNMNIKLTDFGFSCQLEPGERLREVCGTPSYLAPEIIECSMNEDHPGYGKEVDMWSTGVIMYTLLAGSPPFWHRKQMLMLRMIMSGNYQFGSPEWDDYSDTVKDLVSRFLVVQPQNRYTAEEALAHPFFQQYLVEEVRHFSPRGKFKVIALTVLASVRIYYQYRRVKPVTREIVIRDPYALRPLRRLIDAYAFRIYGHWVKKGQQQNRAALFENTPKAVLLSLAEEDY
# Sequence of UniProt P20309 (whole entry, looked up): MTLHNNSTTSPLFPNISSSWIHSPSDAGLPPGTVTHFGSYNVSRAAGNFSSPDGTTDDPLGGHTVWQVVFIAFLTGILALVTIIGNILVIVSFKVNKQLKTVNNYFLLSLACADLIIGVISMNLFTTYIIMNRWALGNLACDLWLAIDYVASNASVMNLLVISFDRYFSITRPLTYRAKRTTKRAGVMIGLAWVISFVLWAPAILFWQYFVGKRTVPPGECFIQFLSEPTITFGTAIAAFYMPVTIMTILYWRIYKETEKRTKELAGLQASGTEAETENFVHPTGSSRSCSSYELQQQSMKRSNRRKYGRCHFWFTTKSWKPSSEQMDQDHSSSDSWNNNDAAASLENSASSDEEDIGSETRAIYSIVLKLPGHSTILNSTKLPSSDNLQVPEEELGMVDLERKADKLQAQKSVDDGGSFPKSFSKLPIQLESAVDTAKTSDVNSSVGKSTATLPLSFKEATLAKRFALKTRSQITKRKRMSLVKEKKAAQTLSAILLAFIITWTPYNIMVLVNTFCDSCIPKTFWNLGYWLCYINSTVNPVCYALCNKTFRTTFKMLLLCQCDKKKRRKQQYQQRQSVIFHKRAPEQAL
# Sequence of UniProt P51451 (whole entry, looked up): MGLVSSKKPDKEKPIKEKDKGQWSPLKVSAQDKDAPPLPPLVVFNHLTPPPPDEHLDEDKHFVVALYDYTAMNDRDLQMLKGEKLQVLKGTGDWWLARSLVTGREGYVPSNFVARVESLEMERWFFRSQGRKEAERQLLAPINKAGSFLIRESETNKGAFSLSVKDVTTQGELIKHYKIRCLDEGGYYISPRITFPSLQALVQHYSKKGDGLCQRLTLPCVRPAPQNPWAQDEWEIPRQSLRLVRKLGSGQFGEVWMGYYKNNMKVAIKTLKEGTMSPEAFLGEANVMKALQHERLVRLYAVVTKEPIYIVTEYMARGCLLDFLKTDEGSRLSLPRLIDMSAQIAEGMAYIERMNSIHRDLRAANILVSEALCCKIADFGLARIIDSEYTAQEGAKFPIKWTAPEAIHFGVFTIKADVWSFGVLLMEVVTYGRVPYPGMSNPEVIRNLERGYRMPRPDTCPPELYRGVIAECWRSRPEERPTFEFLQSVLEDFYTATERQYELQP
# Sequence of UniProt Q13153 (whole entry, looked up): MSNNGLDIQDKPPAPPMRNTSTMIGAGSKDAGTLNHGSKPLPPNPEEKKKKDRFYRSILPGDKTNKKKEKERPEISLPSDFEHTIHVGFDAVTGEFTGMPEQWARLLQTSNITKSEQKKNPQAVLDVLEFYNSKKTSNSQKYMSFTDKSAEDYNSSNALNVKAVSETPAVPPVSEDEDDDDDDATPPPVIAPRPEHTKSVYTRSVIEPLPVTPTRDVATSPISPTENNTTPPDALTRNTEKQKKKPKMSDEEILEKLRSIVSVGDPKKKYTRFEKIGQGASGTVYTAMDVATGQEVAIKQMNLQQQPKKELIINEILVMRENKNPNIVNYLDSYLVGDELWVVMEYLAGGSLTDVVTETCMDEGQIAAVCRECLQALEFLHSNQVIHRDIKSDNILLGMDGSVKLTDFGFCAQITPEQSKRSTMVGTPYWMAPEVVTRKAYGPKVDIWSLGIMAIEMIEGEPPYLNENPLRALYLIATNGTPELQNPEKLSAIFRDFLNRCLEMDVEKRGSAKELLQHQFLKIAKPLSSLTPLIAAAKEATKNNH
# Sequence of UniProt O00254 (whole entry, looked up): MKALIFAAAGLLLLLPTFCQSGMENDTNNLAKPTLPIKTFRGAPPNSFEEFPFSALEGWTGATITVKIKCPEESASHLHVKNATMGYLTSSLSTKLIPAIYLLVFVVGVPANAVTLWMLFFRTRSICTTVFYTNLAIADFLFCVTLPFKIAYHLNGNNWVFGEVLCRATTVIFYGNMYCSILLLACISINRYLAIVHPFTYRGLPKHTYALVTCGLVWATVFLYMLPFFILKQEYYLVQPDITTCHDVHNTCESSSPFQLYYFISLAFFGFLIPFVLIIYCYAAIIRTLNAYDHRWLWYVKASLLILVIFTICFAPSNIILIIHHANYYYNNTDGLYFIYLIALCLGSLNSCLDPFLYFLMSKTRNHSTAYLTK

# Series 1
# SMILES: CCN1/C(=C/C(C)=O)Sc2ccc(OC)cc21
# Observed: enzyme activity
# Action: inhibitor
# Tested at: 0.5 µM
# Reference: control
target,remaining activity
"HIPK4 (Homo sapiens, UniProt Q8NE63)",94%
"EPHB4 (Homo sapiens, UniProt P54760)",92.4%
"AXL (Homo sapiens, UniProt P30530)",105%
"SRMS (Homo sapiens, UniProt Q9H3Y6)",84.7%
"WNK3 (Homo sapiens, UniProt Q9BYP7)",88.1%
"Cyclin-dependent kinase 4, with cyclin D3 (CDK4, Homo sapiens, UniProt P11802)",97.4%
"CAMK2B (Homo sapiens, UniProt Q13554)",102%
"MAPKAPK3 (Homo sapiens, UniProt Q16644)",90.1%
"EPHB1 (Homo sapiens, UniProt P54762)",90.6%
"Cyclin-dependent kinase 6, with cyclin D3 (CDK6, Homo sapiens, UniProt Q00534)",104%
"RPS6KA6 (Homo sapiens, UniProt Q9UK32)",89%
"TSSK2 (Homo sapiens, UniProt Q96PF2)",106%
"MAP4K4 (Homo sapiens, UniProt O95819)",83.2%
"EPHA4 (Homo sapiens, UniProt P54764)",95.5%
"Cyclin-dependent kinase 1, with cyclin B (CDK1, Homo sapiens, UniProt P06493)",93.2%
"RPS6KA5 (Homo sapiens, UniProt O75582)",87.4%
"BLK (Homo sapiens, UniProt P51451)",95.4%
"PDPK1 (Homo sapiens, UniProt O15530)",97.5%
"STK16 (Homo sapiens, UniProt O75716)",87.4%
"DYRK3 (Homo sapiens, UniProt O43781)",50.4%
"PHKG1 (Homo sapiens, UniProt Q16816)",89.5%
"HIPK2 (Homo sapiens, UniProt Q9H2X6)",100%
"STK17A (Homo sapiens, UniProt Q9UEE5)",99.3%

# Series 2
# Structure (SMILES): C[C@@H]1CN(c2cc(-c3n[nH]c4ccc(OC5(C)CC5)cc34)ncn2)C[C@H](C)O1
# Tested at: 0.1 µM
target,observed,method,remaining binding [%]
"Ribosomal protein S6 kinase alpha-2, N-terminal kinase domain (RPS6KA2, Homo sapiens, UniProt Q15349)",cell-free assay,competition with immobilised ligand,92
"TNK1 (Homo sapiens, UniProt Q13470)",cell-free assay,competition with immobilised ligand,76
"NEK3 (Homo sapiens, UniProt P51956)",cell-free assay,competition with immobilised ligand,76
"CDC42BPG (Homo sapiens, UniProt Q6DT37)",,competition binding,89
"PAK1 (Homo sapiens, UniProt Q13153)",cell-free assay,competition with immobilised ligand,97
"PRKAA1 (Homo sapiens, UniProt Q13131)",cell-free assay,competition with immobilised ligand,86
"PIK3CA (Homo sapiens, UniProt P42336, M1043I)",cell-free assay,competition with immobilised ligand,82
"DCLK1 (Homo sapiens, UniProt O15075)",cell-free assay,competition with immobilised ligand,81
"STK36 (Homo sapiens, UniProt Q9NRP7)",cell-free assay,competition with immobilised ligand,86
"RET (Homo sapiens, UniProt P07949)",cell-free assay,competition with immobilised ligand,100
"PAK6 (Homo sapiens, UniProt Q9NQU5)",cell-free assay,competition with immobilised ligand,100
"CDK19 (Homo sapiens, UniProt Q9BWU1)",,competition binding,70
"MARK1 (Homo sapiens, UniProt Q9P0L2)",cell-free assay,competition with immobilised ligand,100
"STK26 (Homo sapiens, UniProt Q9P289)",cell-free assay,competition with immobilised ligand,76
"EGFR (Homo sapiens, UniProt P00533, del746-750)",cell-free assay,competition with immobilised ligand,51
"FLT3 (Homo sapiens, UniProt P36888, D835Y)",cell-free assay,competition with immobilised ligand,100
"PHKG1 (Homo sapiens, UniProt Q16816)",cell-free assay,competition with immobilised ligand,100
"BMP2K (Homo sapiens, UniProt Q9NSY1)",cell-free assay,competition with immobilised ligand,100
"BMPR2 (Homo sapiens, UniProt Q13873)",cell-free assay,competition with immobilised ligand,75
"PIK3CA (Homo sapiens, UniProt P42336)",cell-free assay,competition with immobilised ligand,100
"SNRK (Homo sapiens, UniProt Q9NRH2)",cell-free assay,competition with immobilised ligand,94
"PRKD1 (Homo sapiens, UniProt Q15139)",cell-free assay,competition with immobilised ligand,84
"Ribosomal protein S6 kinase alpha-5, N-terminal kinase domain (RPS6KA5, Homo sapiens, UniProt O75582)",cell-free assay,competition with immobilised ligand,97
"MAP3K5 (Homo sapiens, UniProt Q99683)",cell-free assay,competition with immobilised ligand,88
"PIK3CA (Homo sapiens, UniProt P42336, Q546K)",cell-free assay,competition with immobilised ligand,69

# Series 3
# Target: Calcium/calmodulin-dependent protein kinase type II subunit alpha (CAMK2A, Homo sapiens, UniProt Q9UQM7)
# Sequence of UniProt Q9UQM7 (whole entry, looked up): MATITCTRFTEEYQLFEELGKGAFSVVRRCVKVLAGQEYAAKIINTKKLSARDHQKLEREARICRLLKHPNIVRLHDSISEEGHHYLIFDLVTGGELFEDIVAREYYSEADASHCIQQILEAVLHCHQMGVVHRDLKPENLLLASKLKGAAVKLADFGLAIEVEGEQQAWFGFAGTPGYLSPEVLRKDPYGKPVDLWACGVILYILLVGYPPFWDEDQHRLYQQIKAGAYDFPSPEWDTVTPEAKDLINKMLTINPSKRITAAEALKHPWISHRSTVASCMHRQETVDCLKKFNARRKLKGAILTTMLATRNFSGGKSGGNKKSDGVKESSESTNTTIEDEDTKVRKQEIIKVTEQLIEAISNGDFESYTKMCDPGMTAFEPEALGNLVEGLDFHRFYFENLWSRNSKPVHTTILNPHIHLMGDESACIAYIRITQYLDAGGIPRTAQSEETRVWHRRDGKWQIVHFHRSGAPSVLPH
# Observed: enzyme activity
# Action: inhibitor
# Tested at: 10 µM
SMILES,inhibition [%]
CC(=O)N[C@@H](CC(C)C)C(=O)N[C@@H](CC(C)C)C(=O)N[C@H](C=O)CCCN=C(N)N,4
Cc1nccn1CC1CCc2c(c3ccccc3n2C)C1=O (stereo not drawn),-2
CCN(CC)CCOCCOC(=O)C(CC)(CC)c1ccccc1,-12
C/C=C(/C)C(=O)O[C@@H]1[C@H](OC(=O)CC(C)C)c2c(ccc3ccc(=O)oc23)OC1(C)C,24
C[C@]12CC[C@@H](O)C[C@H]1CC[C@@H]1[C@@H]2[C@@H](O)C[C@@]2(C)[C@H]1CC[C@]2(O)C(=O)CO,-2
CCCCC/C=C\C/C=C\CCCCCCCCO,-25
CCCCCCCCCC(C)O (stereo not drawn),-13
COc1cc(C(C)C)c(Oc2cnc(N)nc2N)cc1S(N)(=O)=O,-2
COC(=O)c1ccc(O)cc1,14
CCCN[C@@H]1CCc2nc(N)sc2C1,7
CCCCCCCCCCCCCCCC[N+](C)(C)CCN(Cc1ccc(OC)cc1)c1ncccn1,-10
O=C(/C=C/c1ccc(O)c(O)c1)O[C@@H]1C[C@@](O)(C(=O)O)C[C@@H](O)[C@@H]1O,-3
COc1cc(NCc2ccc3nc(N)nc(N)c3c2C)cc(OC)c1OC,-10
C=C1CC[C@H]2C(=C)CC[C@H]3C(=C)C(=O)O[C@@H]3[C@@H]12,1
CCCCCCCCCCCCCCCCCC(=O)OC,14

# Series 4
# SMILES: CC(C)CN(C)c1nc(N)c(C(=O)N=C(N)N)nc1Cl
# Observed: β-arrestin recruitment
# Action: agonist
# Method: PRESTO-Tango
# Tested at: 10 µM
# Reference: untreated
target,fold over basal
"Opsin-5 (OPN5, Homo sapiens, UniProt Q6U736)",1.14
"CHRM3 (Homo sapiens, UniProt P20309)",0.6
"HTR1E (Homo sapiens, UniProt P28566)",1.24
"CXCR4 (Homo sapiens, UniProt P61073)",0.55
"LPAR4 (Homo sapiens, UniProt Q99677)",0.82
"S1PR3 (Homo sapiens, UniProt Q99500)",0.62
"TAAR5 (Homo sapiens, UniProt O14804)",1.55 fold
"MRGPRX2 (Homo sapiens, UniProt Q96LB1)",0.57
"ADRB2 (Homo sapiens, UniProt P07550)",0.87
"F2RL1 (Homo sapiens, UniProt P55085)",1.24
"TBXA2R (Homo sapiens, UniProt P21731)",0.73 fold
"Proteinase-activated receptor 3 (F2RL2, Homo sapiens, UniProt O00254)",0.65

# Excerpt of the above (series 1):
target,remaining activity
"RPS6KA6 (Homo sapiens, UniProt Q9UK32)",89%
"TSSK2 (Homo sapiens, UniProt Q96PF2)",106%
"MAP4K4 (Homo sapiens, UniProt O95819)",83.2%
"EPHA4 (Homo sapiens, UniProt P54764)",95.5%
"Cyclin-dependent kinase 1, with cyclin B (CDK1, Homo sapiens, UniProt P06493)",93.2%
"RPS6KA5 (Homo sapiens, UniProt O75582)",87.4%
"BLK (Homo sapiens, UniProt P51451)",95.4%
"PDPK1 (Homo sapiens, UniProt O15530)",97.5%
"STK16 (Homo sapiens, UniProt O75716)",87.4%
"DYRK3 (Homo sapiens, UniProt O43781)",50.4%
